Assay results from different studies.
Protocols differ between the studies behind these lines. Numbers after ± are the reported error.

| Compound | test | system | conditions | Cmax |
| --- | --- | --- | --- | --- |
| CC(=O)c1c(C)c2cnc(Nc3ccc(N4CCNCC4)cn3)nc2n(C2CCCC2)c1=O | – | human patients, plasma | oral, 125 mg once daily, steady state, free base with meal, geometric mean, added: inavolisib + letrozole | 90.7 ng/mL |
| CON(C)C(=O)N1N=C(c2cc(F)ccc2F)S[C@@]1(CCCN)c1ccccc1 | – | human patients, plasma | intravenous, 3.6 mg/m2, cycle 1 day 3 | 70.3 ng/mL |
| O=C(CCCCCCC(=O)Nc1ccccc1)NO | – | human, serum | oral, 300 mg, median | 643 nM |
| Cl.NCCc1c[nH]c(=S)n1[C@H]1COc2c(F)cc(F)cc2C1 | mean | human, male, plasma | oral, 200 mg, fed, high-fat high-calorie meal | 166 ng/mL |
| COC(=O)c1ccc2c(c1)NC(=O)/C2=C(\Nc1ccc(N(C)C(=O)CN2CCN(C)CC2)cc1)c1ccccc1 | – | human, hepatic impairment Child-Pugh B, plasma | oral, 100 mg single dose, fed, adjusted geometric mean | 59.4 ng/mL |
| CC(C)(Sc1ccncc1-c1ccc(C#N)c2ccccc12)C(=O)O | – | human, plasma | oral, 20 mg, added: febuxostat 40 mg | 26.1 ng/mL |
| NS(=O)(=O)OC[C@@H]1C[C@@H](n2ccc3c(N[C@H]4CCc5ccccc54)ncnc32)C[C@@H]1O | – | human | intravenous, 8 mg/m^2 single dose, day 8, added: itraconazole | 66.8 ng/mL |
| CN1C(=O)[C@@H](NC(=O)c2nnc(Cc3ccccc3)[nH]2)COc2ccccc21 | – | human male, plasma | oral, 120 mg twice daily, day 1 | 1720 ng/mL |
| NC1(c2ccc(-c3nc4ccn5c(=O)[nH]nc5c4cc3-c3ccccc3)cc2)CCC1 | – | human | oral, 135 mg, monotherapy, expansion | 261 ± 81.2 ng/mL |
| CN1CC[C@H](c2c(O)cc(O)c3c(=O)cc(-c4ccccc4Cl)oc23)[C@H](O)C1 | – | human advanced solid tumours, plasma | intravenous, 60 flavopiridol, added: oxaliplatin 85 + leucovorin/5-FU | 940 ± 240 nM |
| Cc1[nH]c(/C=C2\C(=O)Nc3ccccc32)c(C)c1CCC(=O)O | – | human patients | oral, 500 mg/m^2 twice daily, after meal, dose 55 | 9360 ± 5720 ng/mL |
| CC[C@H](C)[C@@H]1NC(=O)[C@H](CCCNC(=N)N)NC(=O)[C@H](CC(=O)O)NC(=O)[C@H](CC(C)C)NC(=O)[C@H](CCCCN)NC(=O)[C@H](CC(C)C)NC(=O)CNC(=O)[C@H](Cc2ccccc2)NC(=O)[C@@H](NC(=O)CNC(=O)[C@H](CCCCN)NC(=O)[C@H](CO)NC(=O)[C@H](CC(C)C)NC(=O)CNC(=O)[C@H](CCCCN)NC(=O)[C@H](CCCCN)NC(=O)[C@H](CC(N)=O)NC(=O)[C@H](C)NC(=O)CNC(=O)[C@H](CCCCN)NC(=O)[C@H](Cc2ccc(O)cc2)NC(=O)[C@H](CCCCN)NC(=O)[C@H](CCCNC(=N)N)NC(=O)[C@H](C)NC(=O)[C@H](CC(N)=O)NC(=O)[C@@H]2CCCN2C(=O)[C@H](Cc2c[nH]cn2)NC(=O)[C@H](CCC(=O)O)NC(=O)[C@H](CCC(N)=O)NC(=O)CNC(=O)[C@@H]2CCCN2)CSSC[C@@H](C(=O)O)NC(=O)CNC(=O)[C@H](CC(C)C)NC(=O)CNC(=O)[C@H](CO)NC(=O)[C@H](CCSC)NC(=O)[C@H](CO)NC(=O)CNC1=O | – | human, plasma | subcutaneous, 15 µg/kg once daily, week 26 | 6.52 ng/mL |
| CC(C)NC[C@@H](C(=O)N1CCN(c2ncnc3c2[C@H](C)C[C@H]3O)CC1)c1ccc(Cl)cc1 | – | human, Severe hepatic function, plasma | oral, 100 mg single dose, NCI classification, geometric mean | 78.5 ng/mL |
| C#C[C@]1(CO)O[C@@H](n2cnc3c(N)nc(F)nc32)C[C@@H]1O | – | human, plasma | oral, 30 mg once weekly, week 1 | 647 nM |
| CC(C)(C(=O)NCC(F)(F)C(F)(F)F)C(=O)N[C@@H]1C(=O)Nc2ccccc2-c2ccccc21 | – | human, plasma | oral, 10 mg, day 15, added: bevacizumab | 189 ng/mL |
| CC(C)(Sc1ccncc1-c1ccc(C#N)c2ccccc12)C(=O)O | – | human, plasma | oral, 9 mg daily, day 7, geometric mean, added: febuxostat 80 mg | 15.3 ng/mL |
| Cc1cccc(C)c1N(CC(=O)Nc1ccc(-c2ncon2)cc1)C(=O)C1CCS(=O)(=O)CC1 | – | human male, plasma | oral, 1200 mg single dose, arithmetic mean, alone | 3950 ng/mL |
| N#CCNC(=O)c1ccc(-c2ccnc(Nc3ccc(N4CCOCC4=O)cc3)n2)cc1 | – | human, plasma | oral, 200 mg momelotinib once daily, cycle 1 day 15, mean, added: trametinib 1.0 mg once daily | 645 ng/mL |
